Values quoted from earlier work as cited in several papers.
Compare with care: the assays were run in different laboratories. ± marks the error that the study gave.
pyrDA: Dihydroorotate dehydrogenase A (fumarate) (pyrDA, Lactococcus lactis subsp. cremoris, UniProt A2RJT9)
UniProt A2RJT9, sequence (whole entry, looked up): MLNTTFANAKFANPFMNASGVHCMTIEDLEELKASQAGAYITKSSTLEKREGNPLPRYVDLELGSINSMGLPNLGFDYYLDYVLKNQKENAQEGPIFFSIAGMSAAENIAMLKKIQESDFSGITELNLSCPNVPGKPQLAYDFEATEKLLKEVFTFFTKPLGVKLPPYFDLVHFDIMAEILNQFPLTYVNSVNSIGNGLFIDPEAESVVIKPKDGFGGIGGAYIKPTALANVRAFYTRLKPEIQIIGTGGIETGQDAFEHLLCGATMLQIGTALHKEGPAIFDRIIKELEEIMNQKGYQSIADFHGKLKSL

| SMILES | tested on | assay | test system | setting | scale | quantity | result |
| --- | --- | --- | --- | --- | --- | --- | --- |
| c1cncc(C2=NCCC2)c1 | nicotinic acetylcholine receptor alpha4beta2 |  |  |  |  | Ki | 3.3 µM |
| CN(C)N=O | HepaRG | DNA damage, comet |  |  |  | lowest effective concentration | 4000 µM |
| O=c1c2ccccc2[se]n1-c1ccccc1 | HIV-1 capsid | inhibitor, TR-FRET |  |  |  | IC50 | 0.0461 µM |
| Cn1c(=O)c2c(nc(C=Cc3cccc(Cl)c3)n2C)n(C)c1=O | rat A2A receptor-expressing cells | antagonist, cell-based |  |  |  | Kb | 0.06 µM |
| O=C(O)c1ccc(O)c(O)c1 | pyrDA |  | Lactococcus lactis, wild type | 25 °C |  | Kd | 19 ± 2 µM |
| [Cl][Cd][Cl] | HepG2 | DNA damage, comet |  |  |  | lowest effective concentration | 2 µM |
| O=C(O)c1cc(=O)[nH]c(=O)[nH]1 | pyrDA |  | Lactococcus lactis, wild type | 25 °C |  | Kd | 13.1 ± 0.7 µM |
| OCCN1CCN(CCC=C2c3ccccc3Sc3ccc(C(F)(F)F)cc32)CC1 | MCF7 | microarray, item: STX3 mRNA |  | concentration not given | baseline: DMSO | log2 fold change | 1.29 |

Repeated from above:
| SMILES | tested on | assay | test system | setting | scale | quantity | result |
| --- | --- | --- | --- | --- | --- | --- | --- |
| O=c1c2ccccc2[se]n1-c1ccccc1 | HIV-1 capsid | inhibitor, TR-FRET |  |  |  | IC50 | 0.0461 µM |
